Assay results pooled from the literature.
Compare with care: the assays were run in different laboratories. ± marks the error that the study gave.

Under “subjects with serious TEAE”, `CC[C@H](C)C(=O)N1CCC(NC(=O)Nc2ccc(OC(F)(F)F)c(F)c2)CC1` is recorded as 0% (healthy volunteers; oral, 0.5 mg single dose).
`CCCCCCCCCCCCCCCCCC(=O)Nc1ccn(C2OC(CO)C(O)C2(F)F)c(=O)n1` (centres unmarked) has an AST activity of 76 ± 18 mU/mL (mouse, serum; intravenous, 30 mg/kg gemcitabine equivalent, 24 h).
The percent metabolized of `CNC(=O)Oc1cc(C)c([S+](C)[O-])c(C)c1` (centres unmarked) is reported as 36.9% (human liver microsomes; 1 µM, 30 min, 0.5 mg/mL protein).
`CC(C)[C@H](NC(=O)CNC(=O)[C@H](CCC(N)=O)NC(=O)[C@H](C)N)C(=O)O` — result for “subjects with mild adverse events”: 16.7% (human; intravenous infusion, 15 mg/kg/h, 2 h infusion).
`COc1cc(NC(=O)C(=O)c2c(C)n(Cc3ccc(Cl)cc3)c3ccc(C)cc23)ccn1` has a C0 of 2270 ng/mL (male cynomolgus monkey, plasma; intravenous, 1 mg/kg).
The tracer uptake of `COc1ccc(NC(=O)Cn2c(=O)c3ccccc3n(CC(=O)Nc3cc([125I])c(OC)cc3OC)c2=O)cc1` is reported as 0.14 %ID/g (rat, heart; intravenous, 30 min).
`C[C@]12CC[C@H](O)CC1CCC1C2[C@H](O)C(=O)[C@]2(C)[C@@H](c3ccc(=O)oc3)CC[C@]12O` (some centres unmarked) gave a Km of 19.3 ± 1.6 µM (sulfation, substrate; guinea pig liver cytosol; pH 7.4).
`CCCCCCCCCCCCC(=O)O.O=C1CCCC2C3CCCN4CCCC(CN12)C34` (centres unmarked): “entropic term −TΔS of aggregation” -7.86 kcal/mol (electrical conductivity; water; 303.15 K).

For quick reference, copied from above:
`CC(C)[C@H](NC(=O)CNC(=O)[C@H](CCC(N)=O)NC(=O)[C@H](C)N)C(=O)O` — result for “subjects with mild adverse events”: 16.7% (human; intravenous infusion, 15 mg/kg/h, 2 h infusion).
